Measurements from different studies.
Each line is one published result; not all experiments were run side by side.

| Compound | test | system | setting | measurement | value |
| --- | --- | --- | --- | --- | --- |
| C[C@]1(O)C[C@@](N)(c2ccc(-c3nc4n(c3-c3ccccc3)COc3ccncc3-4)cc2)C1 |  | human, advanced or metastatic solid tumours | dose not given, all patients | patients with AST increased TEAE | 17.6% |
| Cc1cn([C@H]2O[C@@H](CO[P@@](=O)(N[C@@H](C)C(=O)OC(C)C)Oc3ccccc3)[C@H](O)[C@H]2F)c(=O)[nH]c1=O | item: grade 1/2 | human | 50 mg | patients with decreased platelets | 17% |
| C[C@@H]1OC(=O)NN=C1c1ccc(-c2ccc(F)cc2)c(C(F)(F)F)c1 | phase I trial, item: back pain all grades | human patients | 20 mg loading then 1 mg daily | patients with adverse event | 0% |
| C=CC(=O)Nc1cc(Nc2nccc(Nc3cc(Cl)c(F)cc3C(C)(C)O)n2)c(OC)cc1N1CC[C@@H](N(C)C)C1 |  | human patients | oral, 400 mg, treatment-emergent adverse events | patients with rash | 70% |
| COc1ncnn2ccc(-c3cnc4nc(C)n(Cc5nnc([C@@H](C)F)o5)c4c3)c12 |  | human | oral, dose not given, grade 3 | patients with dysgeusia | 0% |
| Cn1cncc1-c1c(F)cncc1NC(=O)c1c(N)nn2cc(F)cnc12 |  | human patients | oral, 180 mg once daily, 2 weeks on 1 week off | patients grade ≥3 creatinine increase | 0% |
| CN(C)C(=O)c1cc2cnc(Nc3ccc(N4CCNCC4)cn3)nc2n1C1CCCC1 | item: other hematologic AESIs | human, HR+/HER2− advanced breast cancer | oral, dose not given, grade 3, CTCAE v4.03 | patients with adverse event | 0% |
| N[C@@H]1c2ccccc2OC12CCN(c1cnc3c(N4CCCc5ncccc54)n[nH]c3n1)CC2 | item: dyspnea | human advanced or metastatic solid tumours | oral, dose not given, phase Ia | patients with serious adverse event | 5.4% |
| COc1ccc(-c2c(-c3ccc(C#N)c(F)c3)nc(N3CCC(N)CC3)n(C)c2=O)cc1F | item: metastases to skin | human patients | oral, dose not given, dose escalation | patients with serious TEAE | 2% |
| O=C1Nc2cc3[nH]nc(-c4ccncc4)c3cc2CN1Cc1ccccc1 | CTCAE v4.03 | human, relapsed or refractory advanced solid tumours | intravenous, 7.2 mg/kg | patients with QTc prolongation | 0% |
